Experimental data pooled from the literature.
Lines come from different studies, so protocols differ. Values joined by “and” are separate records of one study, mostly repeats; a detail may differ. ± marks the error that the study gave.

CC[C@H](C)[C@H](NC(=O)[C@H](C)NC(=O)[C@H](CCCCN)NC(=O)[C@H](CC(C)C)NC(=O)[C@@H](N)Cc1ccccc1)C(=O)N[C@@H](CCCCN)C(=O)N[C@@H](CCCCN)C(=O)N[C@@H](Cc1ccccc1)C(=O)NCC(=O)N[C@@H](CCCCN)C(=O)N[C@@H](CCC(=O)O)C(=O)N[C@@H](Cc1ccccc1)C(=O)N[C@@H](CCCCN)C(=O)N[C@@H](CCCCN)C(=O)N[C@H](C(=O)NCC(=O)N[C@@H](C)C(=O)N[C@@H](CCCCN)C(=O)N[C@@H](CC(C)C)C(=O)N[C@@H](CCCCN)C(=O)O)[C@@H](C)CC  cell growth (HaCaT; MTT; 32 mg/L; relative to: untreated): 89.5% and 98.8% and 83.6% and 86.3%
CC(=O)Oc1ccc(/C=C/C(=O)Oc2cc(C(F)(F)F)ccc2C(F)(F)F)cc1OC(C)=O  subcytotoxic concentration (HaCaT; MTT; 24 h, 10% FBS): 50 µM
CC(=O)NCC(=O)N[C@@H](CCCNC(=N)N)C(=O)N[C@@H](CCCCN)C(=O)N[C@@H](CCCCN)C(=O)N[C@@H](CCCNC(=N)N)C(=O)N[C@@H](CCCNC(=N)N)C(=O)N[C@@H](CCC(N)=O)C(=O)N[C@@H](CCCNC(=N)N)C(=O)N[C@@H](CCCNC(=N)N)C(=O)N[C@@H](CCCNC(=N)N)C(=O)N1CCC[C@H]1C(=O)N[C@@H](CCC(N)=O)C(N)=O  peptide amount (HEK-293T; subcellular fractionation LC-MS; nuclear fraction; 20 µM, 24 h): 0.0126 nmol and 0.011 nmol and 0.0082 nmol
CNC(=O)CC[C@H](Cc1ccccc1)NC(=O)[C@@H](Cc1ccc(Cl)cc1Cl)NC(=O)[C@H](N)Cc1ccccc1[N+](=O)[O-]  viability (Huh-7-ACE2; CellTiter-Glo; 0.000381 µM, 48 h, unit not given; relative to: DMSO): 0.88 and 0.921 and 1
Oc1ccc([C@@H]2Oc3ccc(/C=C/c4cc(O)cc(O)c4)cc3[C@H]2c2cc(O)cc(O)c2)cc1  CC50 (dog cells; 1 (unit not given)): 363 µM
CC(C)[C@H](NC(=O)CNC(=O)CNC(=O)[C@H](Cc1ccc(O)cc1)NC(=O)[C@H](CS)NC(=O)[C@@H](NC(=O)[C@H](Cc1c[nH]c2ccccc12)NC(=O)[C@H](Cc1ccccc1)NC(=O)[C@H](CS)NC(=O)[C@H](Cc1c[nH]c2ccccc12)NC(=O)[C@@H](N)CCCNC(=N)N)C(C)C)C(=O)N[C@@H](CS)C(=O)N[C@@H](Cc1ccc(O)cc1)C(=O)N[C@@H](CCCNC(=N)N)C(=O)N[C@@H](CCCNC(=N)N)C(=O)N[C@@H](CS)C(=O)N[C@@H](CCCNC(=N)N)C(=O)O  HC50 (rat erythrocytes; haemolysis; 1 h, 37 °C, 2% erythrocytes in PBS): 2.98 log10 µg/mL
CN(C)CCCNC(=O)[C@@H]1NC(=O)[C@@H]2Cc3ccc(cc3)Oc3cc4cc(c3O)-c3ccc5c(c[nH]c5c3)C[C@@H](NC(=O)C(NC(=O)CCCCCN)c3ccc(O)cc3)C(=O)N[C@H](c3ccc(O)cc3)C(=O)N[C@H]4C(=O)N[C@@H](C(=O)N2C)c2ccc(cc2)Oc2cc1ccc2O (some centres unmarked)  hemolysis (human red blood cells; PBS; 2 µg/mL, 1 h, pH 7.4, 37 °C): 0.95%
CNC(=O)C[C@H](Cc1ccc(F)cc1)NC(=O)[C@@H](Cc1ccc(Cl)cc1Cl)NC(=O)[C@H](N)Cc1ccccc1[N+](=O)[O-]  viability (Huh-7-ACE2; CellTiter-Glo; 0.0061 µM, 48 h, unit not given; relative to: DMSO): 0.934 and 0.904 and 0.962
CC[C@H](C)[C@H](NC(=O)[C@@H](NC(=O)[C@H](CCCCN)NC(=O)[C@H](CCCCN)NC(=O)[C@@H](NC(=O)[C@H](Cc1c[nH]c2ccccc12)NC(=O)[C@H](CCCCN)NC(=O)[C@H](Cc1c[nH]c2ccccc12)NC(=O)[C@H](CC(C)C)NC(=O)[C@H](CCCCN)NC(=O)[C@H](CCCCN)NC(=O)[C@@H](N)C(C)C)[C@@H](C)CC)C(C)C)C(N)=O  minimum haemolytic concentration (sheep red blood cells; 10% haemolysis; 1 h, 37 °C): 135 µM
O=C1NC2(CC2)COc2ncc(F)cc2[C@H]2COCCN2c2ccn3ncc1c3n2  organ-to-body weight ratio (Sprague-Dawley rat, female, thymus; oral, 20 mg/kg/day, 4 weeks, end of treatment): 0.165 ± 0.039%
CC[C@H](C)[C@H](N)C(=O)N[C@@H](CCCNC(=N)N)C(=O)N[C@H](C(=O)N[C@@H](Cc1c[nH]c2ccccc12)C(=O)N[C@@H](CCCCN)C(=O)N[C@@H](CCCCN)C(=O)N[C@H](C(=O)N[C@H](C(=O)N[C@@H](CCCNC(=N)N)C(=O)N[C@@H](CCCCN)C(=O)N[C@@H](Cc1c[nH]c2ccccc12)C(=O)N[C@@H](CCCCN)C(=O)N[C@@H](C)C(=O)N[C@H](C(=O)N[C@@H](Cc1c[nH]c2ccccc12)C(=O)N[C@@H](Cc1c[nH]cn1)C(N)=O)[C@@H](C)CC)C(C)C)[C@@H](C)CC)C(C)C  hemolysis (rat erythrocytes; 200 µM, 60 min, 37 °C): 9.3 ± 0.3%

A few entries again:
CNC(=O)C[C@H](Cc1ccc(F)cc1)NC(=O)[C@@H](Cc1ccc(Cl)cc1Cl)NC(=O)[C@H](N)Cc1ccccc1[N+](=O)[O-]  viability (Huh-7-ACE2; CellTiter-Glo; 0.0061 µM, 48 h, unit not given; relative to: DMSO): 0.934 and 0.904 and 0.962
